Experimental data from different studies.
Every numbered part comes from another study and shows a few of its results, in no order. Values joined by “and” are separate records of one study, mostly repeats; a detail may differ.

Sample 1 — method: RNA Bind-n-Seq; form: RNA; sample: in vitro; concentration: 200 nM; setting: whole 134-nt RNA, ends assumed; added: 150 mM LiCl; reference: input library; direction: higher = stronger binding; all molecules: 7-deaza-guanosine replaces G
Target: Fragile X messenger ribonucleoprotein 1, C-terminal low-complexity region (Fmr1, Mus musculus, UniProt P35922)
| Oligonucleotide | log2 enrichment |
| --- | --- |
| GGGAGUUCUACAGUCCGACGAUCUAACUUUAGAGGAGGAUCUGAUGGAUAUGGCAGUGGACGUGGAUUUGGGGAUGACUAUAAUGGGUAUGGAGGAGGACCUGGAGGUGGCAAUGGAAUUCUCGGGUGUCAAGG | 0.287 |
| GGGAGUUCUACAGUCCGACGAUCUGGCCCUGGUGGCAUGCGGGGAGGAAGAGGUGGCCUCAUGGAUCGUGGUGGUCCCGGUGGAAUGUUCAGAGGUGACCGUGGUGGAGACAGUGGAAUUCUCGGGUGUCAAGG | -0.52 |
| GGGAGUUCUACAGUCCGACGAUCUCAAGUCCUGUGCUACACAUCGUAUGUACCGAAUCGGGAAAGGAAAGGGGAAAGGAAAGUAUUAUGUUACGCCGUUCGGAUCUGCACUUCUGGAAUUCUCGGGUGUCAAGG | -1.32 |
| GGGAGUUCUACAGUCCGACGAUCGCAGGAAGUAAAAACAAAUGGAAAUGCUUCGGAUAGUGGCAGGGGUGGGGGUUAAAAAGGAAAGGGUGGGAUGGGAGUGGGUAAAGAGUUUGGAAUUCUCGGGUGUCAAGG | 1.53 |

Sample 2 — observed: enzyme activity; action: inhibitor; concentration: 20 µM
Target: Replicase polyprotein 1ab, polymerase (rep, Severe acute respiratory syndrome coronavirus 2, UniProt P0DTD1)
| Structure (SMILES) | inhibition [%] |
| --- | --- |
| C[C@H](N[C@@H](CCc1ccccc1)C(=O)O)C(=O)N1CCC[C@H]1C(=O)O | -3.74 |
| Cc1cc(Nc2cc(C)c(C#N)c(N[C@@H](C)CCCC(C)(C)O)n2)n[nH]1 | -1.48 |
| C[S+](CC[C@H](N)C(=O)[O-])C[C@H]1O[C@@H](n2cnc3c(N)ncnc32)[C@H](O)[C@@H]1O (some centres unmarked) | -2.72 |
| O=S(=O)(O)c1ccc(-c2c3nc(c(-c4ccc(S(=O)(=O)O)cc4)c4ccc([nH]4)c(-c4ccc(S(=O)(=O)O)cc4)c4nc(c(-c5ccc(S(=O)(=O)O)cc5)c5ccc2[nH]5)C=C4)C=C3)cc1 | 31.3 |
| Cn1ncnc1COc1nn2c(-c3c(F)cccc3F)nnc2cc1C1CCC1 | 4.21 |
| Oc1c(Br)cc(Br)c2cccnc12 | 0.1 |
| Cn1cc(-c2ccc(F)c(C(F)(F)F)c2)nc1C1CCN(c2ncnc3[nH]ncc23)CC1 | -0.42 |
| O=C(CCBr)N1CCN(C(=O)CCBr)CC1 | -1.63 |
| CNCCCC1(c2ccccc2)OC(C)(C)c2ccccc21 (centres unmarked) | -3.45 |
| CCN(CC)C(=O)N1CCN(C)CC1 | 2.15 |
| C[N+]1([O-])[C@@H]2CC[C@H]1C[C@@H](OC(=O)C(CO)c1ccccc1)C2 (some centres unmarked) | -2.6 |
| O=C1C=CC[C@@H]2[C@H]3CCCN4CCC[C@@H](CN12)[C@@H]34 | -2.4 |
| Cc1cnc(C(=O)N[C@H]2CCCCC/C=C\[C@@H]3C[C@@]3(C(=O)NS(=O)(=O)C3CC3)NC(=O)[C@@H]3C[C@@H](Oc4nc5ccccc5c5ccccc45)CN3C2=O)cn1 | 1.5 |
| O=S(=O)(O)CCS | 25.4 |
| CC1=NN=C(c2ccc(N)cc2)c2cc3c(cc2C1)OCO3 | 3.87 |
| C[n+]1ccccc1/C=N/O | 1.51 |
| CN(c1ncccc1CNc1nc(Nc2ccc3c(c2)CC(=O)N3)ncc1C(F)(F)F)S(C)(=O)=O | -4.72 |
| O=S(=O)(Oc1ccc(Cl)cc1)c1ccc(Cl)cc1 | 2.56 |
| CC(C)(C)NC[C@H](O)COc1nsnc1N1CCOCC1 | -4.79 |
| Cc1ccc2c(=O)c3cccc(CC(=O)O)c3oc2c1C | 9.3 |
| Cc1cn2c(N)c(Cl)cc(C(=O)NCC3CCN(CC(C)C)CC3)c2n1 | 0.32 |
| OC(Cn1cncn1)(Cn1cncn1)c1ccc(F)cc1F | -3.68 |
| CN1CCC(=C2c3ccccc3CCn3c(C=O)cnc32)CC1 | 0.85 |
| COc1ccc(Nc2ccn(-c3ccccc3)n2)cc1 | -14 |
| CCC(C)SSc1ncc[nH]1 (centres unmarked) | -1.01 |

Sample 3 — cell line: HEK-293T/ACE2; observed: pseudovirus infection; organism: VSV pseudotyped with SARS-CoV-2 spike; concentration: 10 µM; time: 16 h; reference: vehicle-treated
| Structure (SMILES) | GFP-positive cells [%] |
| --- | --- |
| N[C@@H]1CON=C1O | 73.6 |
| Nc1c(CC(=O)O)cccc1C(=O)c1ccc(Br)cc1 | 77.3 |
| CN(C)c1cc(NC(=O)CNC(C)(C)C)c(O)c2c1C[C@H]1C[C@H]3[C@H](N(C)C)C(O)=C(C(N)=O)C(=O)[C@@]3(O)C(O)=C1C2=O | 87.9 |
| C[C@H](O)C(=O)Nc1c(I)c(C(=O)NC(CO)CO)c(I)c(C(=O)NC(CO)CO)c1I | 62.7 |

Sample 4 — method: universal PBM; form: double-stranded DNA, one strand shown; sample: in vitro; concentration: not given; direction: higher = stronger binding
Target: Sal-like protein 4, full length isoform B (SALL4, Homo sapiens, UniProt Q9UJQ4-2, residues 1-616)
Setting: 8-mer, flanks averaged, mean of replicates
Target sequence (chain): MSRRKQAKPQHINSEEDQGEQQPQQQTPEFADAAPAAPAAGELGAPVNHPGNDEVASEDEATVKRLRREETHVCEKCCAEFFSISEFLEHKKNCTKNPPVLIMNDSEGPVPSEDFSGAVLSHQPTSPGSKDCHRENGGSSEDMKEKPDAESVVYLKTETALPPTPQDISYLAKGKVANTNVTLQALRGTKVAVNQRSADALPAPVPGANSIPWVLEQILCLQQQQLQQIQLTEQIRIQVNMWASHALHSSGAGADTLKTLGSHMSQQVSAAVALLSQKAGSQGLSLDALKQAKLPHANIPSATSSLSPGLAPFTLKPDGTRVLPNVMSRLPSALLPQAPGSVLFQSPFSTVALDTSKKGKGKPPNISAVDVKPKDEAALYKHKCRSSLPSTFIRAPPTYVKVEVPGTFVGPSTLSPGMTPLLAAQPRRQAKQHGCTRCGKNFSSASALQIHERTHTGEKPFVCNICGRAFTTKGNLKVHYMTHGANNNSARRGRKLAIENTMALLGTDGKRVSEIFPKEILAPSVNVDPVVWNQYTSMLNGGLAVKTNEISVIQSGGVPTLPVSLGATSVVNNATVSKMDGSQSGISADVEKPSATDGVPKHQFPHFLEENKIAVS
| Oligonucleotide | E-score |
| --- | --- |
| CGCTTTAA | 0.0432 |
| AGTGCATG | 0.0401 |
| AGTACTGC | -0.0214 |
| AATCTAGA | 0.135 |
| GATGATCA | -0.00626 |
| CTAGGTCA | -0.00081 |
| ACAGTGCA | -0.00513 |
| GCTTGACA | -0.0832 |

Sample 5 — method: protein binding microarray; form: double-stranded DNA, one strand shown; sample: in vitro; concentration: not given; reference: not given; direction: higher = stronger binding
Target: Histone acetyltransferase KAT6A, both winged helices, GST fusion (KAT6A, Homo sapiens, UniProt Q92794, residues 1-181)
Setting: 8-mer, flanks averaged, mean of 2 arrays, mostly near background
Residues (chain): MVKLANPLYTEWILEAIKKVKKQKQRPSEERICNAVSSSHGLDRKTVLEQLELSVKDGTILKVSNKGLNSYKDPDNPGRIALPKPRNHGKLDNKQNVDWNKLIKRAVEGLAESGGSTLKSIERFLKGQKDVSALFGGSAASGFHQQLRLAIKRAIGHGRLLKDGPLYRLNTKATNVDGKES
| Oligonucleotide | E-score |
| --- | --- |
| CACGAACA | 0.0722 |
| GAAGCGAA | 0.0162 |
| TCCGCAGA | 0.166 |
| GTAATTCA | -0.0194 |
| ACTAGAGT | -0.0406 |
| ACAGTCTA | 0.0314 |
| ACTATGGA | -0.116 |
| ACGGCGAC | 0.309 |

Further values, each from its own experiment
rep main protease: Replicase polyprotein 1ab, main protease (rep, Severe acute respiratory syndrome coronavirus 2, UniProt P0DTD1)
| Compound | tested on | assay | system | conditions | quantity | result |
| --- | --- | --- | --- | --- | --- | --- |
| O=C(O)CCCCCCCCCCCCCCc1ccc(I)cc1 | rep main protease | enzyme activity, inhibitor | – | 20 µM | inhibition | 4% |
| FC(F)(F)c1cc(NC(=S)Nc2ccc(Br)cc2-c2nnn[nH]2)cc(C(F)(F)F)c1 | rep main protease | enzyme activity | – | 20 µM, with DTT | inhibition | -13.6% |
| O=C(O)[C@@H](S)[C@@H](S)C(=O)O | rep main protease | enzyme activity, inhibitor | – | 20 µM, hit confirmation, no DTT | inhibition | 98.4% and 110% |
| CC(C)C[C@@H](C=O)NC(=O)[C@H](CC(C)C)NC(=O)[C@H](CC(C)C)NC(=O)OCc1ccccc1 | SARS-CoV-2 | cytopathic effect | Vero E6 | – | IC50 | 360 nM |

Excerpt of the above (sample 1):
| Oligonucleotide | log2 enrichment |
| --- | --- |
| GGGAGUUCUACAGUCCGACGAUCUAACUUUAGAGGAGGAUCUGAUGGAUAUGGCAGUGGACGUGGAUUUGGGGAUGACUAUAAUGGGUAUGGAGGAGGACCUGGAGGUGGCAAUGGAAUUCUCGGGUGUCAAGG | 0.287 |
| GGGAGUUCUACAGUCCGACGAUCUGGCCCUGGUGGCAUGCGGGGAGGAAGAGGUGGCCUCAUGGAUCGUGGUGGUCCCGGUGGAAUGUUCAGAGGUGACCGUGGUGGAGACAGUGGAAUUCUCGGGUGUCAAGG | -0.52 |
| GGGAGUUCUACAGUCCGACGAUCUCAAGUCCUGUGCUACACAUCGUAUGUACCGAAUCGGGAAAGGAAAGGGGAAAGGAAAGUAUUAUGUUACGCCGUUCGGAUCUGCACUUCUGGAAUUCUCGGGUGUCAAGG | -1.32 |
| GGGAGUUCUACAGUCCGACGAUCGCAGGAAGUAAAAACAAAUGGAAAUGCUUCGGAUAGUGGCAGGGGUGGGGGUUAAAAAGGAAAGGGUGGGAUGGGAGUGGGUAAAGAGUUUGGAAUUCUCGGGUGUCAAGG | 1.53 |
